Measured values pooled from the literature.
Each numbered part is a random draw from the data of one study; scales do not carry over between parts. Positions count from the first letter of the parent shown.

Study 1
Target: UBE2R2 UBC core domain (UniProt Q712K3)
Technique: yeast two-hybrid
Sample: yeast
Notes: mostly zero background
Reference: not given
Direction: higher = stronger interaction
B1: RFPL2 RING domain (UniProt O75678); chain MAALFQEASSCPVCSDYLEKPMSLECGCAVCLKCINSLQKEPHGEDLLCCCSSMVSRKNKIRR
B2: UBE4A RING domain (UniProt Q14139); chain LQQQEEETYADACDEFLDPIMSTLMCDPVVLPSSRVTVDRSTIARHLLSDQTDPFNRSPLTMDQIRPNTELKEKIQRWLAERKQQKEQLE
B3: RNF150 RING domain (UniProt Q9ULK6); chain DKETESDFDNCAVCIEGYKPNDVVRILPCRHLFHKSCVDPWLLDHRTCPMCKMNILKALGIP
B4: PHF7 RING domain (UniProt Q9BWX1); chain IQHGHVGEESCILCCEDLSQQSVENIQSPCCSQAIYHRKCIQKYAHTSAKHFFKCPQCNNRKEFPQEML
B5: RNF175 RING domain (UniProt Q8N4F7); chain LPTRSLSDNICAVCGQKIIVELDEEGLIENTYQLSCNHVFHEFCIRGWCIVGKKQTCPYCKEKVDLKRMIS
B6: TRIM38 RING domain (UniProt O00635); chain STKKMMEEATCSICLSLMTNPVSINCGHSYCHLCITDFFKNPSQKQLRQETFCCPQCRAPFHMDSLRP
B7: PEX2 RING domain (UniProt P28328); chain DNTLATSGKECALCGEWPTMPHTIGCEHIFCYFCAKSSFLFDVYFTCPKCGTEVHSLQPLK
B8: TRIM10 RING domain (UniProt Q9UDY6); chain SVTSLADEVNCPICQGTLREPVTIDCGHNFCRACLTRYCEIPGPDLEESPTCPLCKEPFRPGSFRP
Construct (chain): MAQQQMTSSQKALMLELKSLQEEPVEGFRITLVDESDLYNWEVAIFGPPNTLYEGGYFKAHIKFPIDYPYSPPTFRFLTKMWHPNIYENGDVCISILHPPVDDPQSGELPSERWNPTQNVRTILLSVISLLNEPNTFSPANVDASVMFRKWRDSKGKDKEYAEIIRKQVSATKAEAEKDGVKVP
Molecule	lacZ reporter activity
B1 (RFPL2 RING domain)	0
B2 (UBE4A RING domain)	0
B3 (RNF150 RING domain)	0
ISNDSETLEECMVCSDMKRDTLFGPCGHIATCSLCSPRVKKCLICKEQVQSRTKIE (MIB1 RING domain (UniProt Q86YT6))	0
B4 (PHF7 RING domain)	0
LKQVSIRENCCSLCCDEVADTQLKPCGHSDLCMDCALQLETCPLCRKEIVSRIRQI (RSPRY1 RING domain (UniProt Q96DX4))	0
B5 (RNF175 RING domain)	0
MANWVFCNRCFQPPHRTSCFSLTNCGHVYCDACLGKGKKNECLICKAPCRTVLLSK (RNF212 RING domain (UniProt Q495C1))	0
B6 (TRIM38 RING domain)	0
KIKDLNEHIVCCLCAGYFVDATTITECLHTFCKSCIVKYLQTSKYCPMCNIKIHETQPLL (PCGF1 RING domain (UniProt Q9BSM1))	0
B7 (PEX2 RING domain)	0
B8 (TRIM10 RING domain)	0
FLKKLEQSFMCVCCQELVYQPVTTECFHNVCKDCLQRSFKAQVFSCPACRHDLGQNYIMI (UHRF2 RING domain (UniProt Q96PU4))	0

Study 2
Target: Centromere-binding protein 1, full length, N-terminal tag (CBF1, Saccharomyces cerevisiae, UniProt P17106, residues 1-351)
UniProt P17106, sequence (whole entry, looked up): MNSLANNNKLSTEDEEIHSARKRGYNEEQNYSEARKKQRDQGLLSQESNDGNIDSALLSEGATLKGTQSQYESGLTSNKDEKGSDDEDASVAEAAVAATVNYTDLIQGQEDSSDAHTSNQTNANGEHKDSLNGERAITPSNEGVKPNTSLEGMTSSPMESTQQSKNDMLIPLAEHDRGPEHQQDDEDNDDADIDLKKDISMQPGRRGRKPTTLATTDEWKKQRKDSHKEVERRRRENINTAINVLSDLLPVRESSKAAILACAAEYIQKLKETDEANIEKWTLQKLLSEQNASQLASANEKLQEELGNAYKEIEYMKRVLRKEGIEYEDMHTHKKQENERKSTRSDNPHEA
Technique: protein-binding microarray
Molecule type: double-stranded DNA, one strand shown
Sample: in vitro
Tested at: 0.8 µM
Notes: whole 60-bp probe, no competitor
Direction: higher = stronger binding
Oligonucleotide	fluorescence intensity [a.u.]
GAACACTACCTTCATCACCCGTACGAGTATTAATAGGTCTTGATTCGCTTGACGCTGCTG	536
GAATTTCTATATTTACATGTGGGAAATGTGGTTTAGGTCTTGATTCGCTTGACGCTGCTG	511
GAAATTAGTAAGATCAACATCAGGGAGGGAACTTAGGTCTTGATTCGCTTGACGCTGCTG	507
CTATAGATAAATCACCACGAATCATTTGTTCGGTTCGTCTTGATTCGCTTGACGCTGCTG	532
GAAAGATAAACAATTCACATGAATGTCAAAATTTAGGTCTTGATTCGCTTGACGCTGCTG	544
GAACCTAAACAACCACACGGGGTTAAGCAAGAATAGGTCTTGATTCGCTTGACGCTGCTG	577
GAATATGGTTAATGTCACGAGATGAATTGTTATTAGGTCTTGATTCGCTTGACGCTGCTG	1910
GAATATCAAATTGGTCACCTTACTTGGCAAGGCTAGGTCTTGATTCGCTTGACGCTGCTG	628
TGTACGAAGCTATACTACGTGACTATAGTAGTTAGGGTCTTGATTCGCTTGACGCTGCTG	678
CTAAAATATGCATATCATGTGGTTACATAAGAATTCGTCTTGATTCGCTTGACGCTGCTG	1580
CTACAGTCAATTCGTCAGCTGGCCGATGAAAGGTTCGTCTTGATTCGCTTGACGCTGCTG	626
GAAAGTTTTTAATACATCAGAACAGAAGGAAGTTAGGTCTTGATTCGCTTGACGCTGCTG	670
GAACTTATAACCACAAACGTGTATATTAAGAAATAGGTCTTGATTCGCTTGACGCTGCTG	584
CTATTGATATGCATGCATGTGGACGCAAGCACATTCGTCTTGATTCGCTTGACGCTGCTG	659
GAAGACTTCGAACGTGATATCATTCCAATGGCTTAGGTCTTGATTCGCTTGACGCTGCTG	966
GAACGACATATCATCCACCAGATTATCACGCTATAGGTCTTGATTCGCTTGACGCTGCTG	597
GAACGCCGCACAAAGGTGACGATTTTTGGGCTATAGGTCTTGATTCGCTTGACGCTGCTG	510
CTAATTTTCCTCTCTGATGTCCTTTACACCTTCTTCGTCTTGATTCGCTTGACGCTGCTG	508

Study 3
Target: Fragile X messenger ribonucleoprotein 1, C-terminal low-complexity region (Fmr1, Mus musculus, UniProt P35922)
Technique: RNA Bind-n-Seq
Molecule type: RNA
Sample: in vitro
Tested at: 200 nM
Notes: whole 134-nt RNA, ends assumed
Added: 150 mM LiCl
Reference: input library
Direction: higher = stronger binding
Each molecule: 7-deaza-guanosine replaces G
Oligonucleotide	log2 enrichment
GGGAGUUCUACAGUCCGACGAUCACCAUGCAGGUGGGCAUCUUUGGGAAGUGGGGCAAGGGGGGGAUAGGGAGGGGGGUAACACUUUGGGAACAGGUGGUCCCCGGUCGUUUCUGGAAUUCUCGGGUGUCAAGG	1.45
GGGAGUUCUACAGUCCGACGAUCGCAGGAAGUAAAAACAAAUGGAAAUGCUUCGGAUAGUGGCAGGGGUGGGGGUUGCUAAGGAAAGGGUGUGAUGGGAGUGGGUAAAGAGUUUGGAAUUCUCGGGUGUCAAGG	1.22
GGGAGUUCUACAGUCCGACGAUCGUCCUGUGCUACACAUCGUAUGUACCGAAUCGGGAAAAAGGGAAAAAAAGGGAAAGGGAAAGUAUUAUGUUACGCCGUUCGGAUCUGCACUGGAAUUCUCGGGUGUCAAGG	0.0445
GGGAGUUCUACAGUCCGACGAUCUCCUGUGCUACACAUCGUAUGUACCGAAUCGGGGUUUUUGGGGUUUUUUUGGGGUGGGGAAAGUAUUAUGUUACGCCGUUCGGAUCUGCAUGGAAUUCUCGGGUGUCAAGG	-0.0777
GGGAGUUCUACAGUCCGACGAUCCAAGUCCUGUGCUACACAUCGUAUGUACCGAAUCGGGUUUGGGAGGGAAAAAGGGAAAGUAUUAUGUUACGCCGUUCGGAUCUGCACUUCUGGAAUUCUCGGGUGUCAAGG	-0.696
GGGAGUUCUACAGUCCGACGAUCCUCAAGUCCUGUGCUACACAUCGUAUGUACCGAAUCGGAAGGGGAAGGGAAGGAAAGUAUUAUGUUACGCCGUUCGGAUCUGCACUUCCAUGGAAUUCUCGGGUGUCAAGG	-0.264
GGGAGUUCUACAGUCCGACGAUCUCCUGUGCUACACAUCGUAUGUACCGAAUCGGGCCCCCCGGGCCCCCCGGCCCCCCGGGAAAGUAUUAUGUUACGCCGUUCGGAUCUGCAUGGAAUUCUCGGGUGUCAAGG	0.259
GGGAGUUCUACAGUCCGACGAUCCACAGACAACACGCACCCACACAGACACAGAGGGAAGGGGUUGGGAUGAGGACAGGGUGCACAGCAGGGCGGGGUAGGACCCCAGCCCCUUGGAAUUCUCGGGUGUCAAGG	0.291
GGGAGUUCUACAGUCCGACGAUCUAACUUUAGAGGAGGAUCUGAUGGAUAUGGCAGUGGACGUGGAUUUGGGGAUGGCUAUAAUGGGUAUGGAUGAGGACCUGGAGGUGGCAAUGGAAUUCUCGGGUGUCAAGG	0.188
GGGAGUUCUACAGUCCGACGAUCGUCCUGUGCUACACAUCGUAUGUACCGAAUCAAAUUUUUAAACCCCCCCAAAUUUAAAAAAGUAUUAUGUUACGCCGUUCGGAUCUGCACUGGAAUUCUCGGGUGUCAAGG	0.53
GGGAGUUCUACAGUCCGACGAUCCAAGUCCUGUGCUACACAUCGUAUGUACCGAAUCGGAAAGGAAAGGGGAAAGGGGAAAGUAUUAUGUUACGCCGUUCGGAUCUGCACUUCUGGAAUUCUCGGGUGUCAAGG	-0.0333

Study 4
Target: CCND2, cyclin fold, Cln2 fusion (human)
Technique: yeast growth competition, sequencing
Sample: yeast
Notes: weak parent motif
Reference: not given
Direction: higher = stronger binding
Parent: CDKN1A docking peptide (human); SKACRRLFGPVDS; partner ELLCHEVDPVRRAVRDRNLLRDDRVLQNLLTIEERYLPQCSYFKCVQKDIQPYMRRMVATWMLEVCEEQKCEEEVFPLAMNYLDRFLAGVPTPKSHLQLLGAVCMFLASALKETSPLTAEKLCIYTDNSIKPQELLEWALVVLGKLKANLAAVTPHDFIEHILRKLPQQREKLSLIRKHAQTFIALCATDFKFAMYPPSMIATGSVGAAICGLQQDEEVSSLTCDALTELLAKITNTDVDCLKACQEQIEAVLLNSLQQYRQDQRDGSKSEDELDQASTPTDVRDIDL
Variant	normalised enrichment score
D12Q	-0.1
L7E	0.227
P10V	-0.0503
P10T	0.332
P10K	-0.0745
R5F	-0.175
R5E	0.0236
L7M	0.287
G9P	0.86
L7A	-0.045
C4T	0.169
A3F	-0.428
K2C	0.348
P10N	0.147
K2N	0.55
R6C	0.634
